# Results from different studies.
# A part holds a random share of what one study measured.
# Chain of UniProt P15056 (whole entry, unmodified, looked up): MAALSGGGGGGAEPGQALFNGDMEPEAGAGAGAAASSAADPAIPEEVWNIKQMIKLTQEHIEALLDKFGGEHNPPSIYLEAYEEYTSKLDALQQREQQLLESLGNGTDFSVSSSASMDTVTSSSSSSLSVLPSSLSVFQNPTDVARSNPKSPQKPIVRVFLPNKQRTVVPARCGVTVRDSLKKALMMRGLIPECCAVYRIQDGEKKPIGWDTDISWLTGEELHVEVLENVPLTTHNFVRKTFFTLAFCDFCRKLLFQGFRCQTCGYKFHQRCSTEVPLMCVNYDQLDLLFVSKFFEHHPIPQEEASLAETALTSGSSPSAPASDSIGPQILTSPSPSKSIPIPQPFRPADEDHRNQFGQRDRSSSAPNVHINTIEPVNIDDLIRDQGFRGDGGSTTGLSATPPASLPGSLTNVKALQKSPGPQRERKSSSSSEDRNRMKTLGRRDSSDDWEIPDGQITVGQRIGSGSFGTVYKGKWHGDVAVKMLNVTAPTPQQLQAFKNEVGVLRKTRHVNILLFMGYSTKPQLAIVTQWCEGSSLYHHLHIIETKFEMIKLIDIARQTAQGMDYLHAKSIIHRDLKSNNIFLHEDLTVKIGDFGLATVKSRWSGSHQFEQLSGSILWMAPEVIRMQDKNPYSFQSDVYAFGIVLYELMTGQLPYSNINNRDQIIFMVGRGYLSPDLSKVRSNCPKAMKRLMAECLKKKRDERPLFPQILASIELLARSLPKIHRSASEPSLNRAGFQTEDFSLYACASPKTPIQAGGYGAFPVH
# Chain of UniProt P07332 (whole entry, looked up): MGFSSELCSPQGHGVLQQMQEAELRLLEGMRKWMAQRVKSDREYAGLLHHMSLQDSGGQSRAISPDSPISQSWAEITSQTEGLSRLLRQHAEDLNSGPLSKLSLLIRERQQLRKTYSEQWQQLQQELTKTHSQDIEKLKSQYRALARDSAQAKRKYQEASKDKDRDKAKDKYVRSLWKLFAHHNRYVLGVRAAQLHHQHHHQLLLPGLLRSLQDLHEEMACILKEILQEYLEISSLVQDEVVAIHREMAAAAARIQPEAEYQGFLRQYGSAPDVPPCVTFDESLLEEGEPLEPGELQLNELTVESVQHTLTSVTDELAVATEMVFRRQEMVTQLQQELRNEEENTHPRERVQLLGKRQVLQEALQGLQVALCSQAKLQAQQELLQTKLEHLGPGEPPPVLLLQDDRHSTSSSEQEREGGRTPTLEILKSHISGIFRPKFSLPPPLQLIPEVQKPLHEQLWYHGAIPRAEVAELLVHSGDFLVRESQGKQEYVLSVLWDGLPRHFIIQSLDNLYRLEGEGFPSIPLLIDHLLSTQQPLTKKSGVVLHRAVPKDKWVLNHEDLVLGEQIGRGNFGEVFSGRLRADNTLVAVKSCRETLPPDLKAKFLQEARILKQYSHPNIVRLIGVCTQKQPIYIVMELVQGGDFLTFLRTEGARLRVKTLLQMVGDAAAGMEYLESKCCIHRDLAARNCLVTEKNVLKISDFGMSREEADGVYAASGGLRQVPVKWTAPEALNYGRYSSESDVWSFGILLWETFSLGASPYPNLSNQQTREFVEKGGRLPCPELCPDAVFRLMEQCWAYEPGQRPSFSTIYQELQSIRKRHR
# Chain of UniProt P42680 (whole entry, looked up): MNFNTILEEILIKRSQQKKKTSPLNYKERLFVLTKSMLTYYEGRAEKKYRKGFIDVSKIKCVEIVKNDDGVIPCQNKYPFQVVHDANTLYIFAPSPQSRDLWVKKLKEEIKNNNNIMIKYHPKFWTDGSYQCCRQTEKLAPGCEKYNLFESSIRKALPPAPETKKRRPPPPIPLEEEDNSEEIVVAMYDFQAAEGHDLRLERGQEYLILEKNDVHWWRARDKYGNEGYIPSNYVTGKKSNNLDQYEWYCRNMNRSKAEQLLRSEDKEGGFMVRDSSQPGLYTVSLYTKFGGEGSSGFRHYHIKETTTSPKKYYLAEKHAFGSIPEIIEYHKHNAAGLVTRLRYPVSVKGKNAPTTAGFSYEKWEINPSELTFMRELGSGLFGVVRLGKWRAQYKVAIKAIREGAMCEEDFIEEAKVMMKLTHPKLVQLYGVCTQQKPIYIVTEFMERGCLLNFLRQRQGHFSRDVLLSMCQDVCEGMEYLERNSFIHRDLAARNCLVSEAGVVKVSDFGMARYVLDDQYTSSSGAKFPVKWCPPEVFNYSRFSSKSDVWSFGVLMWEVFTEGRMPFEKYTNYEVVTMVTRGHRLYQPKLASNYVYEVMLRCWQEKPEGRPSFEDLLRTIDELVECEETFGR
# Chain of UniProt Q96SB4 (whole entry, looked up): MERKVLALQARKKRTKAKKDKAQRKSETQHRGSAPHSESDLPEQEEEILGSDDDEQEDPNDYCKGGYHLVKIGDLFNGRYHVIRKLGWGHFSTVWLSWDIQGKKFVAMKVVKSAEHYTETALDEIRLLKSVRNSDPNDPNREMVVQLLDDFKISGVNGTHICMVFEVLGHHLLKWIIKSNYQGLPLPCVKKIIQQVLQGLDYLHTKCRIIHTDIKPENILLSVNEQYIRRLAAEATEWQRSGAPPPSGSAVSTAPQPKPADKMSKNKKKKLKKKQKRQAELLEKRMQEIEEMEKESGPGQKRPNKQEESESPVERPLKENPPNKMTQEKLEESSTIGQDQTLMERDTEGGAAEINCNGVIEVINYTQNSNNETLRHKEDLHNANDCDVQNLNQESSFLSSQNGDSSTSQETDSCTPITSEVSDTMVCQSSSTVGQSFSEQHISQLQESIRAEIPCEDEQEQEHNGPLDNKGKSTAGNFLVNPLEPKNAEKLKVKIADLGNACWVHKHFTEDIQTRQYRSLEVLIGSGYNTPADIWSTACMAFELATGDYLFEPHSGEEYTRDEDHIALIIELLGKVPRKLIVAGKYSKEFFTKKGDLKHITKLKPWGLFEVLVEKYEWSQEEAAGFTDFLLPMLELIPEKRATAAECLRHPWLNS
# Chain of UniProt Q06418 (whole entry, looked up): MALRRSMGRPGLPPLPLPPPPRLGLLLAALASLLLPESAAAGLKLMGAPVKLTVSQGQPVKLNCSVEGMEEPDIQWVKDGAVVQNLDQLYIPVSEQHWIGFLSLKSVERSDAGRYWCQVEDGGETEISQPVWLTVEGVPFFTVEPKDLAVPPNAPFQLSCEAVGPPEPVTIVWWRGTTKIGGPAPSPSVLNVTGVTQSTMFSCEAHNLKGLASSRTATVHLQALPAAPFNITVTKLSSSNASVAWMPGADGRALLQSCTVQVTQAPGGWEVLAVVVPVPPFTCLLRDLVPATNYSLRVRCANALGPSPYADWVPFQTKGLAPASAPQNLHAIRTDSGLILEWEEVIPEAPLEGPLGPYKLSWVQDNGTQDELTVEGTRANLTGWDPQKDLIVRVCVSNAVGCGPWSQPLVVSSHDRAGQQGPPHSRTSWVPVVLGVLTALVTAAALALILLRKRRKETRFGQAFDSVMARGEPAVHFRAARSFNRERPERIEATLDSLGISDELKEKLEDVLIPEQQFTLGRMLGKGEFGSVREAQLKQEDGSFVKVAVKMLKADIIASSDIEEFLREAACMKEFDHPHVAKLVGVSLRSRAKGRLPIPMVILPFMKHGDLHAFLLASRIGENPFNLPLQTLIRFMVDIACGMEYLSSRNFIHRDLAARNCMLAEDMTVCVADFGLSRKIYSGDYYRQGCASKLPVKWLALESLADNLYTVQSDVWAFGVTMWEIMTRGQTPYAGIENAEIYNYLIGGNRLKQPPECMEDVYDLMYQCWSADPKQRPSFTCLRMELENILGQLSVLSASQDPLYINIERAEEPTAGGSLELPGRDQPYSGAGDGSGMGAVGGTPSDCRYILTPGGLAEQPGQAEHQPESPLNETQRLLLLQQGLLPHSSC
# Chain of UniProt Q15835 (whole entry, looked up): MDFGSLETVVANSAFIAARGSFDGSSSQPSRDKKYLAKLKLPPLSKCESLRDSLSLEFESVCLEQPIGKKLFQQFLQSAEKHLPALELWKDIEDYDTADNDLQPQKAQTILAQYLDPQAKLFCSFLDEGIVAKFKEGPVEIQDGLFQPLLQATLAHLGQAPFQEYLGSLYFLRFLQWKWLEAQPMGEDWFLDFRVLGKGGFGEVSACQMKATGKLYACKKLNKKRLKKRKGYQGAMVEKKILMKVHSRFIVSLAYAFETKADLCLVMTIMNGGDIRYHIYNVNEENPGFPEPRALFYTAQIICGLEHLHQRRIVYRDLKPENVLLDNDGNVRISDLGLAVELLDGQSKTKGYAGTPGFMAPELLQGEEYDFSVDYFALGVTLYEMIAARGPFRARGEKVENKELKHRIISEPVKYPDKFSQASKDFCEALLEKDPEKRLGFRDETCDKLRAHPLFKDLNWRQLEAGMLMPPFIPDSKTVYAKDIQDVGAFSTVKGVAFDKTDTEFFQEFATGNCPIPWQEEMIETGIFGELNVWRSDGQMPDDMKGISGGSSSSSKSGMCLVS

# Series 1
# Species: human
# Sample: microsomes or S9
# Concentration: 2 µM
# Time: 0.5 h
SMILES,remaining compound [%]
Cc1nnc(C)n1/N=C/c1ccc(OCC(N)=O)cc1,91.8
OCc1cc2nc(-c3ccc(OC4CCOC4)cc3)ccc2o1 (stereo not drawn),73
CC(=O)c1ccc(S(=O)(=O)N(CCCO)Cc2cc3c(C)cc(C)cc3[nH]c2=O)cc1,29.5
Cc1cc(NNS(=O)(=O)c2cccs2)n2ncnc2n1,> 100
Cc1c(-c2cc(-c3cnn(C)c3C)n(Cc3ccc(Cl)c(Cl)c3)n2)cnn1C,7.26
CC1(C)CC(=O)c2c(O)cc(OCC(=O)c3ccc(N4CCCC4)cc3)cc2O1,12.1
COC(=O)c1c(NC(=O)c2ccco2)sc2c1CCC2,1.29
O=C(Cn1cnc2c(nnn2-c2cccc(Cl)c2)c1=O)Nc1ccc2c(c1)OCCO2,> 99
CCc1csc(CC(=O)N2CCCn3nccc32)n1,80.5

# Series 2
# Target: Cytoplasmic tyrosine-protein kinase BMX (BMX, Homo sapiens, UniProt P51813)
# Chain of UniProt P51813 (whole entry, looked up): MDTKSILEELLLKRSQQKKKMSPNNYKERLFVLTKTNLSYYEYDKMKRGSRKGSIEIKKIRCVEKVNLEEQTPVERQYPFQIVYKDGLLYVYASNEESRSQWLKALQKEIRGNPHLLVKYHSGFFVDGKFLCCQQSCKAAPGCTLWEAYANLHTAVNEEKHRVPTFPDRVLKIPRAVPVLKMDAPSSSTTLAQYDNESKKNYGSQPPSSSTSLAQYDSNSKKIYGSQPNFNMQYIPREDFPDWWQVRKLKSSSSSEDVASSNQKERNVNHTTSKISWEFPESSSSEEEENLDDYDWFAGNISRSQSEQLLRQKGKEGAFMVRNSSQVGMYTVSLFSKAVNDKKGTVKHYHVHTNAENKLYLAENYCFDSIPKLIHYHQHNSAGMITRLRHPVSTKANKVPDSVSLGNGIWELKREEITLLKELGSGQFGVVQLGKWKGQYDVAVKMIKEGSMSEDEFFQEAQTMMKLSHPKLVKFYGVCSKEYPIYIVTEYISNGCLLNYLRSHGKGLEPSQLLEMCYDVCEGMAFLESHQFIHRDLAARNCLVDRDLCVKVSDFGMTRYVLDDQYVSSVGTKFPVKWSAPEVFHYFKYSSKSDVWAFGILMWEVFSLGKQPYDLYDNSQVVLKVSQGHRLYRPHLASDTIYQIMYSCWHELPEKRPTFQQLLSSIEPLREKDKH
# Read-out: enzyme activity
# Action: inhibitor
# Concentration: 0.5 µM
# Baseline: control
Compound,remaining activity
Cc1ccc(Nc2nccc(N(C)c3ccc4c(C)n(C)nc4c3)n2)cc1S(N)(=O)=O,93.4%
N#CC(C#N)=C(N)/C(C#N)=C/c1ccc(O)cc1,80%
Cc1ccc(NC(=O)c2ccc(CN3CCN(C)CC3)cc2)cc1Nc1nc(-c2cccnc2)cs1,104%
O=C1NC(=O)C(c2cn(CCCO)c3ncccc23)=C1c1cnccn1,97.8%
O=C1NC(=O)C(c2cn(CCCn3ccnc3)c3ccccc23)=C1Nc1ccccc1,90%
NCCNc1ncc(C(N)=O)c(Nc2cccc(C(F)(F)F)c2)n1,93%
Nc1ncnc2n[nH]c(Nc3ccc(F)cc3)c12,89.6%
O=C(CCCc1ccc(-c2ccccc2F)cc1)Nc1ccc(O)cc1,99.6%
COc1cc2ncnc(Nc3ccc(Oc4ccccc4)cc3)c2cc1OC,76.1%
COc1ccc(CNC(=O)Nc2ncc([N+](=O)[O-])s2)cc1,90.8%
CNC(=O)c1cc(Oc2ccc(NC(=O)Nc3ccc(Cl)c(C(F)(F)F)c3)cc2)ccn1,93.3%
Cc1cccc(-c2[nH]c(C(C)(C)C)nc2-c2ccc3c(c2)OCO3)n1,82%
Nc1ccc2ncnc(NCCc3ccc(Oc4ccccc4)cc3)c2c1,102%
O=S(=O)(c1cccc2cnccc12)N1CCCNCC1,104%
O=C(Nc1cccc(Nc2cc(Nc3cccc(C(F)(F)F)c3)ncn2)c1)C1CC1,93.7%
Cc1nc(-c2ccccc2)c(-c2ccncc2)o1,102%
CO[C@H]1C[C@@H]2CC[C@@H](C)[C@@](O)(O2)C(=O)C(=O)N2CCCC[C@H]2C(=O)O[C@H]([C@H](C)C[C@@H]2CC[C@@H](O)[C@H](OC)C2)CC(=O)[C@H](C)/C=C(\C)[C@@H](O)[C@@H](OC)C(=O)[C@H](C)C[C@H](C)/C=C/C=C/C=C/1C,96.6%
CN(C)c1ccc(C=C2C(=O)Nc3ccccc32)cc1,92.2%
Cn1sc(=O)n(Cc2ccccc2)c1=O,91.6%
Nc1[nH]nc2nc3ccccc3nc12,99.5%
COc1ccc(OC)c2c(=S)c3ccccc3[nH]c12,105%
OCC(O)CCON=C1C(c2c(O)[nH]c3ccccc23)=Nc2ccccc21 (stereo not drawn),40.2%
Cn1c2ccccc2c2c3c(c4c5ccccc5n(CCC#N)c4c21)CNC3=O,13.7%
CCOC(=O)c1c(C)[nH]c(/C=C2\C(=O)Nc3ccccc32)c1C,93.5%
COc1cc2ncnc(Nc3ccc(F)c(Cl)c3)c2cc1OCCCN1CCOCC1,102%

# Series 3
# Organism: Sarcocystis neurona
# Read-out: parasite growth
# Concentration: 10 µM
# Time: 96 h
# Setting: second screen
# Baseline: untreated
SMILES,log2 fold change
CO/N=C(\C(=O)N[C@@H]1C(=O)N2C(C(=O)O)=C(COC(N)=O)CS[C@H]12)c1ccco1,0.47
CCCNC(C)C(=O)Nc1ccccc1C (stereo not drawn),0.15
C=CC[C@@H]1/C=C(\C)C[C@H](C)C[C@H](OC)[C@H]2O[C@@](O)(C(=O)C(=O)N3CCCC[C@H]3C(=O)O[C@H](/C(C)=C/[C@@H]3CC[C@@H](O)[C@H](OC)C3)[C@H](C)[C@@H](O)CC1=O)[C@H](C)C[C@@H]2OC,-0.16
CC1=NS(=O)(=O)c2cc(Cl)ccc2N1,0.23
OC(c1cc(C(F)(F)F)nc2c(C(F)(F)F)cccc12)C1CCCCN1 (stereo not drawn),-0.0129
CN1CCC(=C2c3ccccc3C=Cc3ccccc32)CC1,-0.0465
CC(C)(C(=O)c1cccnc1)c1cccnc1,0.52
Nc1ncnc2c1ncn2[C@@H]1O[C@H](CO)[C@@H](O)[C@@H]1O,0.27

# Series 4
# SMILES: O=C(N[C@H]1CCCCC/C=C\C2C[C@@]2(C(=O)O)NC(=O)[C@@H]2C[C@@H](Oc3ccncc3)CN2C1=O)OC1CCCC1 (stereo partly drawn)
# Method: competition with immobilised ligand
# Concentration: 1 µM
target,read-out,remaining binding [%]
"Mast/stem cell growth factor receptor Kit, autoinhibited (KIT, Homo sapiens, UniProt P10721)",binding,84
"IRAK4 (Homo sapiens, UniProt Q9NWZ3)",binding,88
"Aurora kinase C (AURKC, Homo sapiens, UniProt Q9UQB9)",binding,92
"TEK (Homo sapiens, UniProt Q02763)",cell-free assay,100
"GRK1 (Homo sapiens, UniProt Q15835)",binding,100
"IGF1R (Homo sapiens, UniProt P08069)",cell-free assay,96
"FES (Homo sapiens, UniProt P07332)",cell-free assay,100
"EPHA2 (Homo sapiens, UniProt P29317)",cell-free assay,71
"TEC (Homo sapiens, UniProt P42680)",binding,100
"EPHB6 (Homo sapiens, UniProt O15197)",cell-free assay,89
"HIPK1 (Homo sapiens, UniProt Q86Z02)",binding,86
"BRAF (Homo sapiens, UniProt P15056)",cell-free assay,100
"BRAF (Homo sapiens, UniProt P15056, V600E)",cell-free assay,93
"DCLK3 (Homo sapiens, UniProt Q9C098)",binding,100
"SRPK1 (Homo sapiens, UniProt Q96SB4)",binding,91
"PAK5 (Homo sapiens, UniProt Q9P286)",binding,83
"RIPK4 (Homo sapiens, UniProt P57078)",binding,94
"ALK (Homo sapiens, UniProt Q9UM73)",cell-free assay,100
"CDK16 (Homo sapiens, UniProt Q00536)",binding,83
"TYRO3 (Homo sapiens, UniProt Q06418)",cell-free assay,100
"SIK3 (Homo sapiens, UniProt Q9Y2K2)",binding,95

# A few entries again (series 2):
Compound,remaining activity
Cc1ccc(NC(=O)c2ccc(CN3CCN(C)CC3)cc2)cc1Nc1nc(-c2cccnc2)cs1,104%
O=C1NC(=O)C(c2cn(CCCO)c3ncccc23)=C1c1cnccn1,97.8%
O=C1NC(=O)C(c2cn(CCCn3ccnc3)c3ccccc23)=C1Nc1ccccc1,90%
NCCNc1ncc(C(N)=O)c(Nc2cccc(C(F)(F)F)c2)n1,93%
Nc1ncnc2n[nH]c(Nc3ccc(F)cc3)c12,89.6%
